Results from different studies.
Numbered parts are unrelated; each lists some results of a single study.

Series 1 — technique: protein binding microarray; molecule type: double-stranded DNA, one strand shown; medium: in vitro; concentration: not given; relative to: not given; reading: higher = stronger binding
Target: Histone acetyltransferase KAT6A, winged helix 2, GST fusion (KAT6A, Homo sapiens, UniProt Q92794, residues 85-181)
Setting: 8-mer, flanks averaged, mean of 2 arrays, mostly near background
Target sequence (chain): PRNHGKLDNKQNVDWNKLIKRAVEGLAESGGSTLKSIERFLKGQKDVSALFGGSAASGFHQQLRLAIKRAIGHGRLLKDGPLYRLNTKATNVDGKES
`CCCGTGTA` has an E-score of -0.0431.
With `AGGTTAAA` the E-score was 0.00258.
The E-score of `CTGACTGA` is reported as -0.139.
The E-score of `CCCTATGA` is reported as -0.146.
`GATATCCA` has an E-score of 0.111.
The E-score of `ATCACTAC` is reported as -0.0631.
The E-score of `AATAGACT` is reported as -0.214.
`ATAGAAGG` has an E-score of -0.147.
The E-score of `AGGCGGCC` is reported as 0.167.
With `GAACTCCA` the E-score was 0.0295.
The E-score of `AACCGGGG` is reported as -0.0749.
`CATTTTTC` gave an E-score of 0.112.
With `GACATTCA` the E-score was -0.017.
`CCCGTCCC` has an E-score of 0.139.
For `CTGTCGGA`, the E-score was 0.213.
`AAGGATGT` has an E-score of -0.174.
`CAAGGTTC` gave an E-score of -0.0841.
`ACGAGCCA` has an E-score of 0.0483.
With `CCTACCCG` the E-score was 0.194.
`CGGGCTAG` gave an E-score of 0.0639.
For `GAATGTTA`, the E-score was -0.148.
`AAGTCACG` has an E-score of -0.133.
For `AACTACAT`, the E-score was -0.131.
For `AACCTCCA`, the E-score was -0.116.

Series 2 — technique: RNA Bind-n-Seq; molecule type: RNA; medium: in vitro; concentration: 1 µM; setting: whole 134-nt RNA, ends assumed; together with: 150 mM KCl; relative to: input library; reading: higher = stronger binding
Target: Ras GTPase-activating protein-binding protein 1, RRM domain (G3BP1, Homo sapiens, UniProt Q13283)
UniProt Q13283, sequence (whole entry, looked up): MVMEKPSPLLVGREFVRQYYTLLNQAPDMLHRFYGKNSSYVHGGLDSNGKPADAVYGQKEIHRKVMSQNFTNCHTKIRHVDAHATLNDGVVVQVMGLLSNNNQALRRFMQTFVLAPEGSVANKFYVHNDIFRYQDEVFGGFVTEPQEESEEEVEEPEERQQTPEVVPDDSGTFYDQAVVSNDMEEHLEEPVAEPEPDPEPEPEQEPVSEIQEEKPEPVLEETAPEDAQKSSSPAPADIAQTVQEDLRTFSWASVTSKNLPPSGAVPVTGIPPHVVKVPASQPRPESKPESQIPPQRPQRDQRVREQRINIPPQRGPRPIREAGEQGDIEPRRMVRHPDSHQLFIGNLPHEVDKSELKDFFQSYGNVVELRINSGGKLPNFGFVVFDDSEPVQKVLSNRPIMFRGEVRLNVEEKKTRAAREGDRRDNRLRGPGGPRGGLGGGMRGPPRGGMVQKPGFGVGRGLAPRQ
Constant ends, left off below: GGGAGUUCUACAGUCCGACGAUC … UGGAAUUCUCGGGUGUCAAGG
With `UAACUUUAGAGGAGGAUCUGAUGGGUAUGGCAGUGGACGUGGAUUUGGGGAUGGCUAUAAUGGGUAUGGAGGAGGACCUGGAGGUGGCAA` the log2 enrichment was -0.103.
With `GUAAGUGUGGCAAUGUGAACUGAAGCUGAUGGGCUGAGAACAUGGACUGAGCUUGUGGUGUGCUUUGCAGGAGGACUUGAAGCAGAGUUC` the log2 enrichment was 0.262.
`CAAGUCCUGUGCUACACAUCGUAUGUACCGAAUCGGGUUUUGGUUUUGGGUUUUGGAAAGUAUUAUGUUACGCCGUUCGGAUCUGCACUU` has a log2 enrichment of -0.302.
With `UCCUGUGCUACACAUCGUAUGUACCGAAUCAAAUUUAAACCCCCCCAAAUUUUUUUAAAAAAGUAUUAUGUUACGCCGUUCGGAUCUGCA` the log2 enrichment was -0.157.
`UAACUUUAGCGGAGGAUCUGAUGGAUAUGGCAGUGGACGUGGAUUUGGGGAUGGCUAUAAUGGGUAUGGAGGAGGACCUGGAGGUGGCAA` gave a log2 enrichment of -0.852.
With `UAACUUUAGAGGAGGAUCUGAUGGAUAUGGCAGUGGACGUGGAUUUGGGGAUGGCUAUAAUGGGUAUGGAGGAGGCCCUGGAGGUGGCAA` the log2 enrichment was -0.332.
`CCUCAAGUCCUGUGCUACACAUCGUAUGUACCGAAUCGGUUUGGUGGAAAGGAAAGUAUUAUGUUACGCCGUUCGGAUCUGCACUUCCAG` has a log2 enrichment of -0.217.
The log2 enrichment of `AGUCCUGUGCUACACAUCGUAUGUACCGAAUCGGGGUUUGGGGAAAAAGGGGUGGGGAAAGUAUUAUGUUACGCCGUUCGGAUCUGCACU` is reported as 1.23.
With `AGAAAGCCCAGGAGGAACCACCUGCCAAGCUGCUGGAUGACCUUUUCCGAAAGACCAAGGCAGCUCCCUGCAUCUAUUGGCUCCCACUGA` the log2 enrichment was -0.185.

Series 3 — technique: RNA Bind-n-Seq; molecule type: RNA; medium: in vitro; concentration: not given; setting: RNA with constant flanks, ends assumed; relative to: input RNA pool; reading: higher = stronger binding
Target: RING finger protein unkempt homolog, zinc fingers 1-6, GST-SBP tag (UNK, Homo sapiens, UniProt Q9C0B0, residues 30-357)
UniProt Q9C0B0, sequence (30-357, looked up): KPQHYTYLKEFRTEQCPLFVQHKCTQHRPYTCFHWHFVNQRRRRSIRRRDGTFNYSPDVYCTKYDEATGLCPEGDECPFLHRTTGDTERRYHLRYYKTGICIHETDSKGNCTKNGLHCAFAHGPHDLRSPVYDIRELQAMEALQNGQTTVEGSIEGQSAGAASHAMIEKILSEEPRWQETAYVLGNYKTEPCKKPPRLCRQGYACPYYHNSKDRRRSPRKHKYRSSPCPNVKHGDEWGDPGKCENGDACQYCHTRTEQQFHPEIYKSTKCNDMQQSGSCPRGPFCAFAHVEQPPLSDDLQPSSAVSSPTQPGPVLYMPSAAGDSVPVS
Constant ends, left off below: GGGAGUUCUACAGUCCGACGAUC … CAACAGAGGAUUGAGCAUCA
With `AUUGCUAUGGGAUUUCCUGCAGAAAGACUUGAAGGUGUAUACAGGAACAAUAUUGAUGAUGCCGUAAGGUUUUUGGAUUCAAAGCAUAAAAACCAUUACAAGAUAUACAAUCUAUGUGCU` the bound/input enrichment was 0.371 ratio.
`AAAAUUUUAGAAGAGUUUAGGAAAACACAGCAGACAUCUCCUGAUAAAGUGGAUUAUGAAUACCGUGAACUCCUCUUAUAUCAGAAUCAAGUUCUUCGGGAAGCAGGUCUUUAUAGAGAA` has a bound/input enrichment of 1.2 ratio.
The bound/input enrichment of `CCGUUUCUAGUAUAUUCCUGUAAAUGUCAGUUACUGAAAAUGAGUCCAUUGUAAGCCGUUCCGCUUGUUUUUUGCAAUGCCGGCCUCAACACCACAGAGUAAAAAAAAAAAAAAAACGGU` is reported as 0.903 ratio.
With `CUGCAGUCUUUGACUUUUCCUUUCUUUUUUGCCACCCUUUCAGGAACCCUGUAUGGUUUUCCGUUUAAAUUAAAGGAGUCGUUAUCGUGGUGGGAAUAUGAAAUAAAGUAGAAGAAAAGG` the bound/input enrichment was 0.186 ratio.
`CUCAUGUAUCUACUAGCAUAUCCACAAAAACCCAUGGUUAAGACAAAAACCAUUGAAUUGACCGAAUUUGAGAAACUGCCAGCUGGACAGAAUGCAACAGUUGCUGUGAUGAGCUAUAGU` has a bound/input enrichment of 0.196 ratio.
With `AGGAUGAACCGGACAGAUUCCGAAAUAUAUGAGGAUGCUGUAGAACUUCAGCAGUUUUUUAUCCGAAUUCGUGAUGAACUCUGCAAAAAUGGAGAGAUCCUUCUUUCUCCAGCACUCAGC` the bound/input enrichment was 0.128 ratio.
With `CUAUGCCUAACAGAGCCCCAGUACAACUAUUGAGCAGAAUAGCUGUUUCCUGAGAAUUACCACCGCUCACUGGGACUGGCACUCCCUAGAUAGAAACUGAUCCCAGUAAUAAACUUUGAU` the bound/input enrichment was 1.53 ratio.
With `UUGCCGGCUGAAGAAGGAAAAACCUUGCUGGAACUUGUGAUUGAGCAGUUUGAAGACUUACCCGUCCGAAUUUUACUGCUGGCAGCAUGUAUAUCUUUCGUUUUGGCUUGGUUCGAGGAA` the bound/input enrichment was 0.204 ratio.

Series 4 — technique: RNA Bind-n-Seq; molecule type: RNA; medium: in vitro; concentration: 20 nM; setting: 6-mer, flanks averaged, single round; together with: 150 mM KCl; relative to: input library; reading: higher = stronger binding
Target: TAR DNA-binding protein 43, full length, His tag (TARDBP, Homo sapiens, UniProt Q13148, residues 1-414)
For `UGAAGG`, “6-mer enrichment (R)” read 1.62.
For `ACAGCG`, “6-mer enrichment (R)” read 1.06.
Under “6-mer enrichment (R)”, `GUACAG` is recorded as 0.954.
`GGCUAC`: “6-mer enrichment (R)” 0.982.
`UUACGU` — result for “6-mer enrichment (R)”: 0.635.
Under “6-mer enrichment (R)”, `GCCUUG` is recorded as 0.975.
Under “6-mer enrichment (R)”, `ACUCCG` is recorded as 0.654.
For `CGGGAU`, “6-mer enrichment (R)” read 1.82.
For `AUGCAG`, “6-mer enrichment (R)” read 0.94.
For `UACUCG`, “6-mer enrichment (R)” read 0.586.
Under “6-mer enrichment (R)”, `UGUUGG` is recorded as 1.31.
For `UAUCAU`, “6-mer enrichment (R)” read 0.54.
For `UCUGAG`, “6-mer enrichment (R)” read 0.842.
`ACUCUC`: “6-mer enrichment (R)” 0.568.
`ACCUGU`: “6-mer enrichment (R)” 0.629.
For `UCUGAC`, “6-mer enrichment (R)” read 0.598.
`CAGUAC` — result for “6-mer enrichment (R)”: 0.648.
`AAGGUA`: “6-mer enrichment (R)” 0.785.
Under “6-mer enrichment (R)”, `CUAGCA` is recorded as 0.643.
For `GUGGCG`, “6-mer enrichment (R)” read 3.43.
`AUGCUA`: “6-mer enrichment (R)” 0.654.
For `UGGCGU`, “6-mer enrichment (R)” read 1.32.
For `GAGGCU`, “6-mer enrichment (R)” read 1.42.
Under “6-mer enrichment (R)”, `CCGAUG` is recorded as 0.834.

Excerpt of the above (series 4):
`AAGGUA`: “6-mer enrichment (R)” 0.785.
`UUACGU` — result for “6-mer enrichment (R)”: 0.635.
`GGCUAC`: “6-mer enrichment (R)” 0.982.
`AUGCUA`: “6-mer enrichment (R)” 0.654.
For `UGGCGU`, “6-mer enrichment (R)” read 1.32.
Under “6-mer enrichment (R)”, `CCGAUG` is recorded as 0.834.
`ACCUGU`: “6-mer enrichment (R)” 0.629.
